Measurements pooled from the literature.
Every numbered part comes from another study and shows a few of its results, in no order.

Study 1 — technique: RNA Bind-n-Seq; molecule type: RNA; sample: in vitro; concentration: 365 nM; baseline: no-protein control; direction: higher = stronger binding
Target: RNA binding protein fox-1 homolog 2, RRM domain, GST-SBP tag (RBFOX2, Homo sapiens, UniProt O43251-10, residues 100-194)
Setting: natural RNA segment, single round, ends assumed
Target sequence (chain): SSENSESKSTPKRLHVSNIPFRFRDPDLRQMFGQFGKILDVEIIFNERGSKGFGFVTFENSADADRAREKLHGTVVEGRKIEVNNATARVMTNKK
| Oligonucleotide | RBNS enrichment (R) |
| --- | --- |
| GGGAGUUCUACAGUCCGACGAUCAGUGAGUGUGGCCUAGGAACAGGUCCCUUCCUAAGCUCUAGUGUCCCCAUCUGUAAAAUGGGCUGAUUGGCCUCCACGGUCAGAGCGGCCAUCUGGCUGUGCCAUCCUGCUGGAAUUCUCGGGUGCCAA | 0.285 |
| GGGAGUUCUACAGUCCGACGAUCAAAGGUGCUGGAGAAAACAUGUAUAGAACUCAGAAUAAAAUGGAAAAUCAUAAUAAAAAUGUUAGUGAUAGAUUUGUUCUGAGUGAACAUCACAAAAAAAAAUUCAAAGAUGGAAUUCUCGGGUGCCAA | 0.574 |
| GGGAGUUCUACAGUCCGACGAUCGGGGAGGGGGUGGCUGUGGUCCAGGGACCCCAGGCCCUGAUUCCUGUGCCUGGCGUCUGUCCCGGCCCCGCCUGUCAGAAGAUGAACAUGUAUAGUGGCUAACUUAAGGGUGGAAUUCUCGGGUGCCAA | 0.374 |
| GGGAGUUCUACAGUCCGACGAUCGAGUGAGAGUUUGGAAGGUGUCCAAAUUUAAUGUAGACAUUAUCUUUUGGCUCUGAAGAAGCAAACAUGACUAGAGACGCACCUUGCUGCAGUGUCCAGAAGCGGCCUGUUGGAAUUCUCGGGUGCCAA | 0.364 |
| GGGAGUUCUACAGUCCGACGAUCUCAAAUGUAGUCUCUGUUAAGGUCAAGUUUUCUUUUAUAAGCCUUUAAUUCAUCCUCAGUGACUCUGGCAAGGCUGCUUCUCUAUCACUGGCUUUGCACAGAAGUAUGCUUGGAAUUCUCGGGUGCCAA | 0.856 |
| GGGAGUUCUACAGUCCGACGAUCUUAACCCUAAUUUCUCUCUGACCCUAAAGGAGCUGCUGGCCCUAGAAGGUUGGGAUCAAUCUUGUCAAGUCUAUGUUACACUUACUUUUACAAAAAAAAGUAUAUAUACAUGGAAUUCUCGGGUGCCAA | 0.255 |
| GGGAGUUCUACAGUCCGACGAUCUCCGUAUUGUAAAAUUUUCAUUUUCAGUAACACCCAGUAGAUAAUUUUUCAAAGACGAUCCUCCUCAAACACCCAUUUUUACAAUAUCUCUAUUGUAAAAUUUCAUUUUCUGGAAUUCUCGGGUGCCAA | 0.575 |
| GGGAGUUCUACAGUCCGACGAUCGAUCAUGCCAUUCUUAAGUAAAUCAACUAUUUUCAACACUGAAGAAAAAUGAAACAUUAUUUAGAAAACAAUGAGAUUACAAGUUCCAAACUCAGCCAGGAAUGUGGCUCUGGAAUUCUCGGGUGCCAA | 0.297 |
| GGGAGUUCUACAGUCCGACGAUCUCUGUACGUGCAACUGGGAAACUUUUGUCCUUUGAGGCUAGGCAGCUCCCUGCCCUCCGUGUGUGUCUGUUAUCUGGGGGAGAGGAGUGUGGAAGGGUUGGGGGAAGAGCUGGAAUUCUCGGGUGCCAA | 2.37 |
| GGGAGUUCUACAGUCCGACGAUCCACAUUCUUUGCAUCUGUAUUGUACCAGCUUUAUAGCACUGUUUCAUGCCAAAGUUCUGAUGACGUAACCAGUUGACCCUUCACACAGAGUGCCCUUUCCCCCCCUCCCCUGGAAUUCUCGGGUGCCAA | 1.01 |
| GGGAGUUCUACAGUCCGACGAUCCUCAUCUCCUCUGCCUGUGUCUGCGACCCCCAUCCAUGUGCCAAAGUGUCCCUUGGGUCACACAGCUAAAGCCGAGGUGACCAGUUGUACCCCGAGUGCCAGGCUUGUGAUGGAAUUCUCGGGUGCCAA | 1.13 |
| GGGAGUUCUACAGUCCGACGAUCAGGGAAAUUGGGGCUAAUGAGAUCAGUGCCAAAUUUCAGCAGAUACCUGUGAGGCUGACACCUGUUGCAGACUAUGGAGUGGUGAGAUUUGGGAAAGUUGGGCUAUAUGUUGGAAUUCUCGGGUGCCAA | 1.27 |

Study 2 — organism: Saccharomyces cerevisiae; observed: binding; technique: competitive growth deep sequencing; molecule type: peptide; strain: cyclin D2-Cln2 fusion strain; concentration: concentration not given; setting: peptide tiling library; direction: direction not given
| Molecule | growth enrichment score |
| --- | --- |
| AIRKMREDRWAVIAKM | -0.71 |
| PARRRLRLSVDEVSSP | -0.767 |
| PAKRRLELGE | 1.27 |
| NARRSLNFGGSTGT | -0.653 |
| KPITLDTTDFQESFVT | 0.78 |
| PLRKAKRARLCSSSSS | 1.53 |
| IVLICAKRSLCAAFSV | -2.39 |
| DSDSDSEGGAAGGEAD | 2.09 |
| ESSQLTVQAEFDMSAI | 0.604 |
| ALTMEALEDPSPELME | 0.367 |
| DTERAHSTLDEDLERW | 1.01 |
| GQLVIPLDELTLDTSF | 1.93 |

Study 3 — technique: protein binding microarray; molecule type: double-stranded DNA, one strand shown; sample: in vitro; concentration: not given; baseline: not given; direction: higher = stronger binding
Target: Histone acetyltransferase KAT6A, winged helix 2, GST fusion (KAT6A, Homo sapiens, UniProt Q92794, residues 85-181)
Setting: 8-mer, flanks averaged, mean of 2 arrays, mostly near background
Target sequence (chain): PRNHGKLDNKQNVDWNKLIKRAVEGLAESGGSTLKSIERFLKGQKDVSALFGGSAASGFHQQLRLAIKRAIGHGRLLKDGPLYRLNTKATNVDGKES
| Oligonucleotide | E-score |
| --- | --- |
| AGGTTCAG | 0.124 |
| AGACTCCC | -0.0764 |
| ACCTTGAG | 0.0265 |
| GAGCTCCA | 0.0371 |
| ATGGCGCG | 0.0554 |
| AGTCTGCC | -0.0482 |
| AAGCCCGC | 0.134 |
| CGCATCGA | 0.127 |
| AACGGGTC | -0.0246 |
| TAACCTTA | -0.136 |
| TCAGCCGA | 0.116 |
| TATCCGCA | 0.112 |
| CCAGCTCA | 0.111 |
| ATCCAGGA | 0.0124 |
| AAGCTAAA | 0.0964 |
| ACGAGACT | -0.13 |
| ACCCAACC | -0.13 |
| GATATCAA | 0.158 |
| AAGAGCGA | 0.0776 |
| ACAACTTA | -0.0862 |
| CCCGTATC | -0.0744 |
| GGAGCCAA | -0.0201 |
| AGGCGGTC | 0.173 |
| AGGCCCAT | -0.0685 |
| AAGGTCGC | 0.00377 |

Study 4 — technique: universal PBM; molecule type: double-stranded DNA, one strand shown; sample: in vitro; concentration: 600 nM; direction: higher = stronger binding
Target: Sal-like protein 4, full length isoform A (SALL4, Homo sapiens, UniProt Q9UJQ4, residues 1-1053)
Chain of UniProt Q9UJQ4 (whole entry, looked up): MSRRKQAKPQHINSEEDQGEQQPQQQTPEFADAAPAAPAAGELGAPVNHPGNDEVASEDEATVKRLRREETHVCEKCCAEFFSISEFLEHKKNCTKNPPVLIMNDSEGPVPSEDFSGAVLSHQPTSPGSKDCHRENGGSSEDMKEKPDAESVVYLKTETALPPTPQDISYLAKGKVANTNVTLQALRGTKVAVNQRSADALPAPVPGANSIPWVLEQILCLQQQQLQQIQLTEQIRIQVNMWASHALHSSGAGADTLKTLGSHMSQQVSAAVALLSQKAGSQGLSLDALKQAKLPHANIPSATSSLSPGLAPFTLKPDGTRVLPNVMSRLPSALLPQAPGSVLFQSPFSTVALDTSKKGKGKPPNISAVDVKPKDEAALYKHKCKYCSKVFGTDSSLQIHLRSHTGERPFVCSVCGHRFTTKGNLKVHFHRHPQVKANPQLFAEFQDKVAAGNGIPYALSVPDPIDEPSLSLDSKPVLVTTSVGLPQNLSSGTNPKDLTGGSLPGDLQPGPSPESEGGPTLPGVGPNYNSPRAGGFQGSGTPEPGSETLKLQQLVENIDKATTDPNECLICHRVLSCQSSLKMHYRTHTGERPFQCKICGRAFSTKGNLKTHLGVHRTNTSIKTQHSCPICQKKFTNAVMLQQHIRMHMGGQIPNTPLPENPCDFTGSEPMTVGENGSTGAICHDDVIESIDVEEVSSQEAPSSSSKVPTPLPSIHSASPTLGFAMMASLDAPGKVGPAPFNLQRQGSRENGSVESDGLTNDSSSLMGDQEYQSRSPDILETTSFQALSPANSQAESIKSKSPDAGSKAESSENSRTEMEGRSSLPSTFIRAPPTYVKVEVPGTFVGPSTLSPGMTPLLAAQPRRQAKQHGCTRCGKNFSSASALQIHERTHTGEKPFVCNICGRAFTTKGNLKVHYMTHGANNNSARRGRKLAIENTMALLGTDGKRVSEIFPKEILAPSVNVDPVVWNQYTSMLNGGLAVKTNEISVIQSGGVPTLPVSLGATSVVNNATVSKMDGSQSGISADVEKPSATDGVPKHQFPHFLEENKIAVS
Setting: 8-mer, flanks averaged, mean of replicates
| Oligonucleotide | E-score |
| --- | --- |
| AGTAGTGG | -0.0428 |
| CGCAATCC | -0.0631 |
| CATTAGAG | 0.0279 |
| AAAGAGTT | 0.139 |
| ACCGCAAG | -0.0862 |
| GGCCAACC | -0.315 |
| GTTAACAA | 0.183 |
| AACGGTTC | -0.16 |
| GGTAGTGA | -0.145 |
| ATTCTCCA | 0.182 |
| ACCGAGCA | -0.265 |
| CGAGTCTA | -0.102 |
| CCTCCTCG | -0.156 |
| GCAAGCCA | -0.222 |
| ATTCGGTC | -0.0927 |
| CTCCGTCA | -0.0663 |
| GCGGCCCA | -0.326 |

Study 5 — technique: RNA Bind-n-Seq; molecule type: RNA; sample: in vitro; concentration: 200 nM; setting: whole 134-nt RNA, ends assumed; together with: 150 mM KCl; baseline: input library; direction: higher = stronger binding
Target: Fragile X messenger ribonucleoprotein 1, C-terminal low-complexity region (Fmr1, Mus musculus, UniProt P35922)
| Oligonucleotide | log2 enrichment |
| --- | --- |
| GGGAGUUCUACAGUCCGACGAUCUUUGAUGACAGUCUGCAGGAGCUGCCUGGUGAAGUACCUGGAGGAGAACAACACCUGCCCCACCUGCAGGAUUGUGAUCCACCAGAGCCAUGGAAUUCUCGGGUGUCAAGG | -1.28 |
| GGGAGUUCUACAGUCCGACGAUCUCAAGUCCUGUGCUACACAUCGUAUGUACCGAAUCGGGAAAGGGUGGGAAAGGGAAAGUAUUAUGUUACGCCGUUCGGAUCUGCACUUCCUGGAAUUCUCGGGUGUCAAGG | 1.04 |
| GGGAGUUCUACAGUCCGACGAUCCUGUGCUACACAUCGUAUGUACCGAAUCGGGUUUUUUGGGGUUUUUUGGGGUUUUUUGGGGAAAGUAUUAUGUUACGCCGUUCGGAUCUGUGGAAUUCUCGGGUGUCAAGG | -0.129 |
| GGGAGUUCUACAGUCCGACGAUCUCAAGUCCUGUGCUACACAUCGUAUGUACCGAAUCGGUUUUUUUGGUUUGGAGGAAAGUAUUAUGUUACGCCGUUCGGAUCUGCACUUCCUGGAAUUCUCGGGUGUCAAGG | -0.655 |
| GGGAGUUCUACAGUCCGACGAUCCCUGUGCUACACAUCGUAUGUACCGAAUCGGGGUUUUUGGGGAAAGGGGAAAAAAAGGGGAAAGUAUUAUGUUACGCCGUUCGGAUCUGCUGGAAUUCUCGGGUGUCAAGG | 0.287 |
| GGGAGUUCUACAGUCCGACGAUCUGUGCUACACAUCGUAUGUACCGAAUCGGGGAAAAAAAGGGGUUUUUUUGGGGUUUUUGGGGAAAGUAUUAUGUUACGCCGUUCGGAUCUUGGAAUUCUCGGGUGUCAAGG | 0.507 |
| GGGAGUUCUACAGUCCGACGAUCGGCACAGGUGCCCGACCAUACACUGGGAAAGUUGGUGCUGAGGAUGCCGAUGGGAUUGACAUGGCCUACCGGGUGCUGGCUGACCACGCUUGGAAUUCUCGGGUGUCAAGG | -0.86 |
| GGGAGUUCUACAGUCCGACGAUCGCAGGAAGUAAAAACAAAUGGAAAUGCUUCGGAUAGUGGCAGGGGUGGGGGUUGCUAAGGAAAGGGUGGGAUGGGAGUGGCUAAAGAGUUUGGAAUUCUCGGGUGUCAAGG | 0.382 |
| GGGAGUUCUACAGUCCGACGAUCUGGCCCUGGGGGCAUGCGGGGAGGAAGAGGUGGCCUCAUGGAUCGUGGUGGUCCCGGUGGAAUGUUCAGAGGUGGCCGUGGUGGAGACAGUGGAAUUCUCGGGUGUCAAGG | -0.0467 |
| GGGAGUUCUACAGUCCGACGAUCAGUCCUGUGCUACACAUCGUAUGUACCGAAUCGGUUUUUUUGGUUUUUUUGGAAAGGAAAGUAUUAUGUUACGCCGUUCGGAUCUGCACUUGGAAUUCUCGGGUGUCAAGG | -1.23 |

A few entries again (study 1):
| Oligonucleotide | RBNS enrichment (R) |
| --- | --- |
| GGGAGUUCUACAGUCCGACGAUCGAGUGAGAGUUUGGAAGGUGUCCAAAUUUAAUGUAGACAUUAUCUUUUGGCUCUGAAGAAGCAAACAUGACUAGAGACGCACCUUGCUGCAGUGUCCAGAAGCGGCCUGUUGGAAUUCUCGGGUGCCAA | 0.364 |
| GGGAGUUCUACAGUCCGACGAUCUCAAAUGUAGUCUCUGUUAAGGUCAAGUUUUCUUUUAUAAGCCUUUAAUUCAUCCUCAGUGACUCUGGCAAGGCUGCUUCUCUAUCACUGGCUUUGCACAGAAGUAUGCUUGGAAUUCUCGGGUGCCAA | 0.856 |
| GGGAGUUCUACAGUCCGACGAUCAGUGAGUGUGGCCUAGGAACAGGUCCCUUCCUAAGCUCUAGUGUCCCCAUCUGUAAAAUGGGCUGAUUGGCCUCCACGGUCAGAGCGGCCAUCUGGCUGUGCCAUCCUGCUGGAAUUCUCGGGUGCCAA | 0.285 |
| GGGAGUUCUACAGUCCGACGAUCGGGGAGGGGGUGGCUGUGGUCCAGGGACCCCAGGCCCUGAUUCCUGUGCCUGGCGUCUGUCCCGGCCCCGCCUGUCAGAAGAUGAACAUGUAUAGUGGCUAACUUAAGGGUGGAAUUCUCGGGUGCCAA | 0.374 |
